{"data": "Published values gathered from unrelated publications", "note": "Parts stem from different laboratories: compare values within a part only."}
{"data": "Series 1", "target": "TAR DNA-binding protein 43, full length, His tag (TARDBP, Homo sapiens, UniProt Q13148, residues 1-414)", "technique": "RNA Bind-n-Seq", "molecule type": "RNA", "matrix": "in vitro", "tested at": "20 nM", "notes": "6-mer, flanks averaged, single round", "together with": "150 mM LiCl", "relative to": "input library", "reading": "higher = stronger binding"}
{"Oligonucleotide": "GGAAGA", "6-mer enrichment (R)": 0.985}
{"Oligonucleotide": "UAUAGG", "6-mer enrichment (R)": 0.984}
{"Oligonucleotide": "CGUCAA", "6-mer enrichment (R)": 0.863}
{"Oligonucleotide": "UGAAGU", "6-mer enrichment (R)": 1.02}
{"Oligonucleotide": "GUUAAU", "6-mer enrichment (R)": 1.03}
{"Oligonucleotide": "CCCGAG", "6-mer enrichment (R)": 1.11}
{"data": "Series 2", "target": "RING finger protein unkempt homolog, zinc fingers 1-6, GST-SBP tag (UNK, Homo sapiens, UniProt Q9C0B0, residues 30-357)", "technique": "RNA Bind-n-Seq", "molecule type": "RNA", "matrix": "in vitro", "tested at": "not given", "notes": "RNA with constant flanks, human and mouse sites, ends assumed", "relative to": "input RNA pool", "reading": "higher = stronger binding", "all sequences stand within": "GGGAGUUCUACAGUCCGACGAUC … CAACAGAGGAUUGAGCAUCA", "Construct (chain)": "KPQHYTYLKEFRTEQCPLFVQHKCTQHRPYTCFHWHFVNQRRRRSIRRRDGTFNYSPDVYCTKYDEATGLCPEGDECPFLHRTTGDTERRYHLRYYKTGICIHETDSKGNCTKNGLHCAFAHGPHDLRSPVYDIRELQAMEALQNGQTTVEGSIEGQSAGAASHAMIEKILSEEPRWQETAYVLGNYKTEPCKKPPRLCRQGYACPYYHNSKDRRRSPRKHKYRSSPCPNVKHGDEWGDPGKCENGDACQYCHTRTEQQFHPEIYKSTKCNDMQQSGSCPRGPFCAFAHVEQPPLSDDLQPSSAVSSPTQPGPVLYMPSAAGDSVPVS"}
{"Oligonucleotide": "GAGGUGUUGGAAGCCUUGUGUGAUGGUAGCCUAGGAGACUGUAAAGAAGCUGCCGAAGCCUACAGAGCAAGUUGUCAUAAGCUUUUCCCUUAUGCUUUGGCUUUCAUGCCUCCUGGAUAC", "bound/input enrichment [ratio]": 0.108}
{"Oligonucleotide": "GAAAUUGGUAAUCGAUACAUCGAGAUAUUUCCAAGCAGAAGGAAUGAAGUUCGAACACAUGUCGGUUCUUAUAAGGGAAAGAAAAUCGCAUCUUUUCCUACUGCUAAGUAUAUAACUGAG", "bound/input enrichment [ratio]": 0.0966}
{"Oligonucleotide": "ACAAAAAACAAACGACCAUUUCUCUAAGCCAAGUUUCUUUUAGAGACAUUUUAACUUAUUUAGCUGAACUCUAGAUUUUUUGGUAAACUAUCAAUCUGUAUAUGUUGUAAUUAAGUGUCU", "bound/input enrichment [ratio]": 1.57}
{"Oligonucleotide": "GCUUCUGUGAGACUUGAUAAUAGCUCCUCUGGUGCAAGUGUGGUAGCUAUUGACAACAAAAUCGAGCAAGCUAUGGAUCUAGUGAAAAGCCAUUUGAUGUAUGCGGUCAGAGAAGAAGUG", "bound/input enrichment [ratio]": 0.327}
{"Oligonucleotide": "CUAGCUGAAAUAACCCUUGAUCCUCCUCCUAAUUGCAGUGCUGGGCCUAAAGGAGAUAACAUUUAUGAAUGGAGAUCAACUAUACUUGGUCCACCGGGUUCUGUAUAUGAAGGUGGUGUG", "bound/input enrichment [ratio]": 0.413}
{"Oligonucleotide": "AAGGUCUUUAAUGUUGCCAUCCCCCGAUUCCACAUGGCAUGUCCAACAUUCAGGGUGUCUAUAGCUCGAUUGGAAAUGGGUCCUGAUGAAUAUGAAGAGAUGGAGGAGGAAGCUGAGGAG", "bound/input enrichment [ratio]": 0.142}
{"Oligonucleotide": "CUGGCACUAACUGUGACAUCUAUGACCUUUUUUAUCAUCGCACAAGCCCCUGAACCAUAUAUUGUUAUCACUGGAUUUGAAGUCACCGUUAUCUUAUUUUUCAUACUUUUAUAUGUACUC", "bound/input enrichment [ratio]": 2.63}
{"data": "Series 3", "target": "Interferon regulatory factor 5, full length, phosphomimetic (IRF5, Homo sapiens, UniProt Q13568-2, residues 1-514, S451D/S453D/S456D/S462D)", "technique": "protein-binding microarray", "molecule type": "double-stranded DNA, one strand shown", "matrix": "in vitro", "tested at": "940 nM top", "notes": "60-bp whole probe", "together with": "salmon DNA 0.4 mg/ml", "relative to": "random background probes", "reading": "higher = stronger binding", "all sequences stand within": "GCCTAGCAC … GTCTTGATTCGCTTGACGCTGCTG"}
{"Oligonucleotide": "TCACATGTTTTTTTCTAACTGTGCTAG", "fitted relative affinity [z-score]": 1.16}
{"Oligonucleotide": "TCAACTTTCTGAATGCTACTGTGCTAG", "fitted relative affinity [z-score]": 0.665}
{"Oligonucleotide": "TCACCTCTGCTGCTGGCACTGTGCTAG", "fitted relative affinity [z-score]": -0.533}
{"Oligonucleotide": "CTCACTCTGTCCCTCTGTGAGTGCTAG", "fitted relative affinity [z-score]": 0.534}
{"Oligonucleotide": "GACGATATCAGTATCGAGATGTGCTAG", "fitted relative affinity [z-score]": 1.38}
{"Oligonucleotide": "GACGGATCCCTTTTCCTGACGTGCTAG", "fitted relative affinity [z-score]": 0.255}
{"Oligonucleotide": "ATAGATTCCAGTTTCGATTAGTGCTAG", "fitted relative affinity [z-score]": 8.15}
{"Oligonucleotide": "GACGATTACAGTCTCGAGACGTGCTAG", "fitted relative affinity [z-score]": 1.03}
{"Oligonucleotide": "TTAGAATTCAGTCTCGATTAGTGCTAG", "fitted relative affinity [z-score]": 3.96}
{"Oligonucleotide": "GGCGATCTCAGTTTCGAGACGTGCTAG", "fitted relative affinity [z-score]": 4.89}
{"Oligonucleotide": "GACGGTTTCGGTCTCGCGACGTGCTAG", "fitted relative affinity [z-score]": 13.8}
{"Oligonucleotide": "TTAGGTTTCGGGTTTCGATTAGTGCTA", "fitted relative affinity [z-score]": 10.6}
{"Oligonucleotide": "TTAGGTATCAGACTGGGTTAGTGCTAG", "fitted relative affinity [z-score]": 0.805}
{"Oligonucleotide": "AGACAGAAGGGAAACAGGTTGGTGCTA", "fitted relative affinity [z-score]": -0.151}
{"data": "Other studies, line by line"}
{"Molecule": "PhoQ, residues 284 288 289 292 302 303 TSTLRA", "target": "PhoP, residues 12 14 15 18 19 IQFRS (Escherichia coli, UniProt P23836)", "test": "Sort-seq, refers to: YFP reporter", "test system": "E. coli", "setting": "PhoQ-PhoP variant library, together with: 10 µM Mg2+", "how to read": "relative to: high Mg2+ state, higher = stronger signaling", "endpoint": "fold induction", "value": 8.6}
{"note": "Some of these lines once more (series 3):"}
{"Oligonucleotide": "GGCGATCTCAGTTTCGAGACGTGCTAG", "fitted relative affinity [z-score]": 4.89}
{"Oligonucleotide": "AGACAGAAGGGAAACAGGTTGGTGCTA", "fitted relative affinity [z-score]": -0.151}
